Measurements gathered from unrelated publications.
Every numbered part comes from another study and shows a few of its results, in no order.

Series 1 — method: protein binding microarray; molecule type: double-stranded DNA, one strand shown; medium: in vitro; tested at: not given; baseline: not given; reading: higher = stronger binding; measurement: E-score
Target: Histone acetyltransferase KAT6A, winged helix 1, GST fusion (KAT6A, Homo sapiens, UniProt Q92794, residues 1-85)
Notes: 8-mer, flanks averaged, mean of 2 arrays, mostly near background
Residues (chain): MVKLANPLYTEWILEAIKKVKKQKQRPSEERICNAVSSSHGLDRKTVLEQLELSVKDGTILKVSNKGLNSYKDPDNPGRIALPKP
Strand = AATACAAT; value = -0.108
Strand = AGATGGTA; value = -0.191
Strand = CGTGACAG; value = 0.0327
Strand = CAGATCTG; value = -0.226
Strand = ATCCTACG; value = 0.00126
Strand = AGCCCAGG; value = -0.242
Strand = ACTCACCC; value = -0.0243
Strand = CGGTGTTC; value = 0.232
Strand = ACTGCCCA; value = -0.211
Strand = ACACATTG; value = -0.0478
Strand = GGTGGACA; value = -0.125
Strand = CCGCGTTC; value = 0.353
Strand = CTTAGTGC; value = -0.2
Strand = GACTGAGC; value = -0.0062
Strand = CTGGTCAC; value = -0.16
Strand = GATTCGAC; value = -0.243
Strand = CGACACCG; value = 0.334
Strand = AGCCCGAG; value = 0.08
Strand = AGGCGTAG; value = 0.0342
Strand = TATCTTCA; value = -0.0471
Strand = GGGTTCAA; value = 0.0921
Strand = GCCCTCAA; value = -0.0366
Strand = TACCAATA; value = 0.0435
Strand = AGAATGCG; value = 0.163
Strand = CTCTAATC; value = 0.00123

Series 2 — method: RNA Bind-n-Seq; molecule type: RNA; medium: in vitro; tested at: 365 nM; baseline: no-protein control; reading: higher = stronger binding; measurement: RBNS enrichment (R)
Target: RNA binding protein fox-1 homolog 2, RRM domain, GST-SBP tag (RBFOX2, Homo sapiens, UniProt O43251-10, residues 100-194)
Notes: natural RNA segment, single round, ends assumed
All sequences stand within: GGGAGUUCUACAGUCCGACGAUC … UGGAAUUCUCGGGUGCCAA
Residues (chain): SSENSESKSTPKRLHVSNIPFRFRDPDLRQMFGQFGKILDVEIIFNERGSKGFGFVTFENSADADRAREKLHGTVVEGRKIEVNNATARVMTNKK
Strand = GACUCCCAGGAGACAGUGUGGGAAACGCUCCUGCUUUAAUUCCCCGAGAAACGGCUCUUCCUGCCUGGAUGCAGGAGGGCAGGGGCCACCACAGAUUAAAGCUGUUACUG; value = 0.999
Strand = GCUGAGUGUAAAAGUUGUUAUCUGGACGAUCUGUCUCUCUGCUCCAAAGAAAUUUUGGAGUGAGUGGCAGUCCUGCGCCAGCCUCGCGGGACACGUGUUGUACAUAAGCC; value = 0.312
Strand = AAAGGUUCUGUUGGAGCUGAAUGUCAUGAUGUUUAUCAUCCAGCAAGCCCUCCUUCUCACAUAGCAACAGCAUCCACCUACAGAAGCAGCCCCUCAGUGUAGCCACUUCA; value = 0.426
Strand = AGGGUUAUGAGCCUACUGGAUUGAGGUUAAAAUCCAAGAACCAACAUUUAGAGCUUUGUGCUUUUCUCUCAUUCCAUCACUUUGUAAUGAUGAUACUUAACAUGAGCAGG; value = 0.438
Strand = AGGAUUCCGUCUCCUUCAAAGAAGUUUUAUUUUUGGUCCAGAGUACUUGUUUUCCCGAUGUGUCCAGCCAGCUCCGCAGCAGCUUUUCAAAAUGCACUAUGCCUGAUUGC; value = 0.686
Strand = GAUCAGUGAGGAGGUGAAUGUAUAAGUUAUGGCCUGGACCCUGCUGCAGAUGCUGUGAGAGUCUGGGGAAAGAUCACAUGGGUCGAGGGUUUCUCUACUGGUCAGGAUGC; value = 1.41
Strand = GAUUAUGAGCGUUAAUGUACGAAAUGUGCAGAGCAAAUUGAGGCCAACUGUGGCAUCAAUACUGCAACUUAAACUUGACAAUCAUGGUUUGCUGGUCCUCAAACAGGCAC; value = 0.323
Strand = CAGCCUCGUCUGGAAAAAGGACCAGGGGUCCCGGAGGAACCCAUUUGUGCUCUGCUUGGACAGCAGGCCUGGCACUGGGAGGUGGGGGUGAGCCCCUCACAGCCUUGCCC; value = 0.362

Series 3 — method: RNA Bind-n-Seq; molecule type: RNA; medium: in vitro; tested at: 200 nM; notes: whole 134-nt RNA, ends assumed; with: 150 mM LiCl; baseline: input library; reading: higher = stronger binding; measurement: log2 enrichment; library: 7-deaza-guanosine replaces G
Target: Fragile X messenger ribonucleoprotein 1, C-terminal low-complexity region (Fmr1, Mus musculus, UniProt P35922)
All sequences stand within: GGGAGUUCUACAGUCCGACGAUC … UGGAAUUCUCGGGUGUCAAGG
Strand = ACCAUGCAGGUGGGCAUCUUUGGGAAGUGGGGCAAAGGGGGGAUAGGGAGGGGGGUAACACUUUGGGAACAGGUGGUCCCAGGUCGUUUC; value = 1.26
Strand = AAGUCCUGUGCUACACAUCGUAUGUACCGAAUCGGGAAAAAAAGGGUGGGAAAGGGAAAGUAUUAUGUUACGCCGUUCGGAUCUGCACUU; value = -1.07
Strand = UGGCCCUGGUUGCAUGCGGGGAGGAAGAGGUGGCCUCAUGGAUCGUGGUGGUCCCGGUGGAAUGUUCAGAGGUGGCCGUGGUGGAGACAG; value = 0.211
Strand = AGUCCUGUGCUACACAUCGUAUGUACCGAAUCGGGGUUUUGGGUUUUGGGUUUUGGGGAAAGUAUUAUGUUACGCCGUUCGGAUCUGCAC; value = -0.642
Strand = CCUCAAGUCCUGUGCUACACAUCGUAUGUACCGAAUCGGGAGGGAGGGGAGGAAAGUAUUAUGUUACGCCGUUCGGAUCUGCACUUCCAG; value = -0.945
Strand = AGUCCUGUGCUACACAUCGUAUGUACCGAAUCGGGUUUUUGGGUGGGAAAAAAAGGGAAAGUAUUAUGUUACGCCGUUCGGAUCUGCACU; value = -1.8
Strand = GCAGGAAGUAAUAACAAAUGGAAAUGCUUCGGAUAGUGGCAGGGGUGGGGGUUGCUAAGGAAAGGGUGGGAUGGGAGUGGGUAAAGAGUU; value = 1.55
Strand = GAGAGCGAGGUGGCUUCAAUAAGCCUGGUGGUAAGUUUUUGAGUAUUACCAUAGAUAGUGUUUAAAAAAAAAUGCAGUCAGUUUUUAGAA; value = -0.256

Series 4 — method: protein-binding microarray; molecule type: double-stranded DNA, one strand shown; medium: in vitro; tested at: 250 nM; notes: 60-bp whole probe; with: salmon DNA 0.4 mg/ml; baseline: random background probes; reading: higher = stronger binding; measurement: log fluorescence; all sequences stand within: GCCTAGCAC … GTCTTGATTCGCTTGACGCTGCTG
Target: Interferon regulatory factor 7, full length, phosphomimetic (IRF7, Homo sapiens, UniProt Q92985, residues 1-503, S101K/S471D/S472D/S475D/S476D/S477D/S483D/S484D/S487D)
Residues (chain): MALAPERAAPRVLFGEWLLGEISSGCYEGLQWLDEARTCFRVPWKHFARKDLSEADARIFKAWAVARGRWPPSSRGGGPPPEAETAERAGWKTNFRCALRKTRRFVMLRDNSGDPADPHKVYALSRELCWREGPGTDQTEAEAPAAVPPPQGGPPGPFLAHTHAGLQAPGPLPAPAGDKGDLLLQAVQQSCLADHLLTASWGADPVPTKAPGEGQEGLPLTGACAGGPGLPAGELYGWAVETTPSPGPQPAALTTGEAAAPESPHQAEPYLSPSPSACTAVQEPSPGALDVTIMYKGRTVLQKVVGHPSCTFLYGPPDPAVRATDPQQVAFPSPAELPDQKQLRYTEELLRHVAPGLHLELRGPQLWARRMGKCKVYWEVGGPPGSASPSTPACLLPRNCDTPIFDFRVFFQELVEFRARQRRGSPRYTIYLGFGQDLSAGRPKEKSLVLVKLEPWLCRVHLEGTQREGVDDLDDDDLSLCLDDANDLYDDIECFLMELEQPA
Strand = TCCATTATTGCTTCCTCTTTGTGCTAG; value = 1.14 z-score
Strand = GACGGTCTCCTTCTCATGACGTGCTAG; value = 0.247 z-score
Strand = GACGGTCACGGTCTCGGGACGTGCTAG; value = -0.187 z-score
Strand = TTGGGTCTCCTACTGCTTTAGTGCTAG; value = -0.593 z-score
Strand = GCGATTTGAGGAGCTCGCTCGTGCTAG; value = -0.0379 z-score
Strand = TCATTTTTTTACTTCGGACTGTGCTAG; value = 0.734 z-score
Strand = TCACACACCATTCTCGGACTGTGCTAG; value = 0.268 z-score
Strand = TTAGATTTCAGTCGCGATTAGTGCTAG; value = 0.739 z-score
Strand = GACGGTTTCGGTTTCGGAACGTGCTAG; value = 14.9 z-score
Strand = CTAGGTTTCGGTATCGGTTAGTGCTAG; value = 11.1 z-score
Strand = TCAGGTTTGTACACCGCACTGTGCTAG; value = 0.0326 z-score
Strand = TTCTACTTCTCTTTTTGCTTGTGCTAG; value = 1.58 z-score
Strand = TTGGGTTTCCTACTGCTTTAGTGCTAG; value = 0.654 z-score
Strand = GACGGTTTCGGTTTCGGGCCGTGCTAG; value = 13.6 z-score
Strand = TTAGGTATCAACTTTCGGTTAGTGCTA; value = 1.43 z-score
Strand = ATCATTCTCACTGCAGCCTTGTGCTAG; value = 0.509 z-score
Strand = GACGAACTGAGTATAGAGACGTGCTAG; value = -0.475 z-score
Strand = TTAGAACCGAGTCTCGATTAGTGCTAG; value = 2.12 z-score
Strand = GACGGACTGGAGACTGGGGACGTGCTA; value = -0.279 z-score

Repeated from above (series 1):
Strand = ATCCTACG; value = 0.00126
Strand = GACTGAGC; value = -0.0062
Strand = TACCAATA; value = 0.0435
Strand = CAGATCTG; value = -0.226
